{"data": "Experimental data gathered from unrelated publications", "note": "± marks the error that the study gave."}
{"SMILES": "Nc1ncnc2c1c(-c1cc(Cl)cc(Cl)c1)cn2[C@@H]1O[C@H](CO)C[C@H]1O", "organism": "Trichomonas vaginalis", "test": "resorufin", "system": "G3, metronidazole-sensitive", "conditions": "24 h + 2 h, 2% O2", "measurement": "EC50", "result": "9480 ± 1060 nM"}
{"SMILES": "CC[C@@H](C(=O)[C@@H](C)[C@@H](O)[C@H](C)CCc1ccc(C)c(O)c1C(=O)O)[C@H]1O[C@](CC)([C@H]2CC[C@](O)(CC)[C@H](C)O2)C[C@@H]1C", "organism": "Eimeria tenella", "system": "MDBK, sporozoites", "conditions": "maximum non-toxic concentration", "scale": "reference: DMSO", "measurement": "invasion rate", "result": "39.3%"}
{"SMILES": "COC(=O)Nc1c(Cc2cccc3ccccc23)cc(=O)n2c1SCC2C(=O)Nc1ccccc1 (stereo not shown)", "organism": "Chlamydia trachomatis", "test": "infectivity, second cycle", "system": "HeLa, serovar L2", "conditions": "1 µM, 48 h", "scale": "reference: DMSO", "measurement": "inhibition", "result": "-19 ± 21%"}
{"SMILES": "CC(C)c1ccc(-c2cn([C@@H]3O[C@H](CO)C[C@H]3O)c3ncnc(N)c23)cc1", "organism": "Trichomonas vaginalis", "test": "resorufin", "system": "G3, metronidazole-sensitive", "conditions": "24 h + 2 h, 2% O2", "measurement": "EC50", "result": "1200 ± 484 nM"}
{"SMILES": "C[C@H]1[C@H](C)CC[C@]2(CO)CC[C@]3(C)C(=CC[C@@H]4[C@@]5(C)CC[C@H](O)C(C)(C)[C@@H]5CC[C@]43C)[C@H]12", "organism": "Eimeria tenella", "system": "sporozoites", "conditions": "100 µM, 24 h", "scale": "reference: DMSO", "measurement": "viability", "result": "86.6%"}
{"SMILES": "Nc1ncnc2c1c(-c1ccc(OC(F)(F)F)cc1)cn2[C@@H]1O[C@H](CO)C[C@H]1O", "organism": "Trichomonas vaginalis", "test": "resorufin", "system": "G3, metronidazole-sensitive", "conditions": "24 h + 2 h, 2% O2", "measurement": "EC50", "result": "790 ± 292 nM"}
{"SMILES": "O=c1[nH]c(=O)c2ncn(C[C@H](CF)OCP(=O)(O)O)c2[nH]1", "organism": "herpes simplex virus 1", "test": "cytopathic effect", "system": "HEL, KOS", "measurement": "EC50", "result": "> 313000 nM"}
{"SMILES": "CC(C)C[C@H](NC(=O)[C@H](Cc1ccccc1)NC(=O)c1cnccn1)B(O)O", "organism": "Babesia divergens", "test": "parasite growth, parasitemia by blood smear", "system": "ex vivo blood culture", "conditions": "48 h", "scale": "reference: DMSO", "measurement": "minimum significant inhibitory concentration", "result": "50 nM"}
{"SMILES": "CC1(C)SC2C(NC(=O)C(NC(=O)C3=C(O)C(Cc4ccc(F)cc4)NC3=O)c3ccccc3)C(=O)N2C1C(=O)O (stereo not shown)", "organism": "Acinetobacter baumannii", "test": "microbial growth, broth dilution", "system": "ATCC19606", "measurement": "MIC", "result": "25 µg/mL"}
{"SMILES": "Nc1ccn(C[C@@H](CO)OCP(=O)(O)O)c(=O)n1", "organism": "herpes simplex virus 1", "test": "cytopathic effect", "system": "HEL, KOS", "conditions": "72 h", "measurement": "EC50", "result": "0.63 ± 0.36 µg/mL"}
{"SMILES": "Nc1ncnc2c1c(-c1ccc(Cl)cc1Cl)cn2[C@@H]1O[C@H](CO)C[C@H]1O", "organism": "Trichomonas vaginalis", "test": "resorufin", "system": "G3, metronidazole-sensitive", "conditions": "24 h + 2 h, 2% O2", "measurement": "EC50", "result": "1620 ± 310 nM"}
{"SMILES": "CCOC(=O)c1c(N)csc1-c1cn(-c2ccccc2)nc1-c1ccc(C)cc1", "organism": "Klebsiella pneumoniae", "test": "broth microdilution", "system": "clinical urinary isolate", "conditions": "compound gamma-irradiated 1 kGy", "measurement": "MIC", "result": "0.25 ± 0.5 µg/mL"}
{"SMILES": "CC1NC(=O)C(C(=O)NC(C(=O)NC2C(=O)N3C2SC(C)(C)C3C(=O)O)c2ccccc2)=C1O (stereo not shown)", "organism": "Acinetobacter baumannii", "test": "microbial growth, broth dilution", "system": "ATCC19606", "measurement": "MIC", "result": "≥ 200 µg/mL"}
{"SMILES": "Nc1ncnc2c1c(C1CCCCC1)cn2C1OC(CO)CC1O (stereo not shown)", "organism": "Trichomonas vaginalis", "test": "resorufin", "system": "G3, metronidazole-sensitive", "conditions": "24 h + 2 h, 2% O2", "measurement": "EC50", "result": "42800 ± 2180 nM"}
{"SMILES": "CC1(C)SC2C(NC(=O)C(NC(=O)C3=C(O)CNC3=O)c3ccccc3)C(=O)N2C1C(=O)O (stereo not shown)", "organism": "Escherichia coli", "test": "broth microdilution", "system": "BW25113, Mueller-Hinton broth", "conditions": "together with: CCCP 50 µg/mL", "measurement": "MIC", "result": "25 µg/mL"}
{"SMILES": "Nc1ncnc2c1c(-c1ccccc1F)cn2[C@@H]1O[C@H](CO)[C@@H](O)[C@H]1O", "organism": "Trichomonas vaginalis", "test": "resorufin", "system": "G3, metronidazole-sensitive", "conditions": "24 h + 2 h, 2% O2", "measurement": "EC50", "result": "210 ± 68 nM"}
{"SMILES": "CO/N=C(\\C(=O)N[C@@H]1C(=O)N2C(C(=O)O)=C(CSc3nc(=O)c(=O)[nH]n3C)CS[C@H]12)c1csc(N)n1", "organism": "Pseudomonas aeruginosa", "test": "checkerboard broth microdilution", "system": "clinical isolate 17-99", "conditions": "together with: magainin II", "measurement": "FIC index", "result": 0.25}
{"SMILES": "Nc1ncnc2c1ncn2CCOCP(=O)(O)O", "organism": "herpes simplex virus 1", "test": "cytopathic effect", "system": "HEL, KOS", "conditions": "72 h", "measurement": "EC50", "result": "6 ± 3.5 µg/mL"}
{"SMILES": "NC(=O)c1ncn([C@@H]2O[C@H](CO)[C@@H](O)[C@H]2O)n1", "organism": "Cucumber mosaic virus", "test": "inactivation activity", "system": "host plant", "conditions": "500 µg/mL", "measurement": "inhibition", "result": "52.4%"}
{"SMILES": "O=Cc1c[nH]c2ccc([N+](=O)[O-])cc12", "organism": "Trypanosoma equiperdum", "system": "trypomastigotes, IVM-t1", "measurement": "IC50", "result": "> 131000 nM"}
{"SMILES": "CC1(C)SC2C(NC(=O)C(NC(=O)C3=C(O)C(Cc4ccccc4)NC3=O)c3ccccc3)C(=O)N2C1C(=O)O (stereo not shown)", "organism": "Escherichia coli", "test": "broth microdilution", "system": "BW25113, Mueller-Hinton broth", "measurement": "MIC", "result": "100 µg/mL"}
{"SMILES": "CC(C)(O/N=C(\\C(=O)N[C@@H]1C(=O)N2C(C(=O)[O-])=C(C[n+]3ccccc3)CS[C@H]12)c1csc(N)n1)C(=O)O", "organism": "Pseudomonas aeruginosa", "test": "checkerboard", "system": "ATCC 27853", "conditions": "together with: magainin II", "measurement": "FIC index", "result": 0.25}
{"SMILES": "Nc1ncnc2c1c(-c1cc(Cl)cc(Cl)c1)cn2[C@@H]1O[C@H](CO)[C@@H](O)[C@H]1O", "organism": "Trichomonas vaginalis", "test": "resorufin", "system": "G3, metronidazole-sensitive", "conditions": "24 h + 2 h, 2% O2", "measurement": "EC50", "result": "1990 ± 560 nM"}
{"SMILES": "C[C@@H](O)[C@H]1C(=O)N2C(C(=O)O)=C(S[C@@H]3CN[C@H](C(=O)N(C)C)C3)[C@H](C)[C@H]12", "organism": "Pseudomonas aeruginosa", "test": "checkerboard", "system": "ATCC 27853", "conditions": "together with: magainin II", "measurement": "FIC index", "result": 0.187}
{"SMILES": "CC1(C)SC2C(NC(=O)C(NC(=O)C3=C(O)C(Cc4ccc([N+](=O)[O-])cc4)NC3=O)c3ccccc3)C(=O)N2C1C(=O)O (stereo not shown)", "organism": "Acinetobacter baumannii", "test": "microbial growth, broth dilution", "system": "ATCC19606", "measurement": "MIC", "result": "50 µg/mL"}
{"SMILES": "Nc1ncnc2c1c(-c1ccc(F)cc1)cn2[C@@H]1O[C@H](CO)[C@@H](O)[C@H]1O", "organism": "Trichomonas vaginalis", "test": "resorufin", "system": "G3, metronidazole-sensitive", "conditions": "24 h + 2 h, 2% O2", "measurement": "EC50", "result": "110 ± 34 nM"}
{"SMILES": "CCN1CCN(C(=O)N[C@@H](C(=O)N[C@@H]2C(=O)N3[C@@H]2SC(C)(C)[C@@H]3C(=O)O)c2ccccc2)C(=O)C1=O", "organism": "Pseudomonas aeruginosa", "test": "checkerboard broth microdilution", "system": "clinical isolate 17-99", "conditions": "together with: magainin II", "measurement": "FIC index", "result": 0.25}
{"SMILES": "O=c1[nH]c(=O)c2ncn(CC(CO)OCP(=O)(O)O)c2[nH]1 (racemic)", "organism": "herpes simplex virus 2", "test": "cytopathic effect", "system": "HEL, G", "measurement": "EC50", "result": "20000 nM"}
{"note": "Excerpt of the above:"}
{"SMILES": "O=Cc1c[nH]c2ccc([N+](=O)[O-])cc12", "organism": "Trypanosoma equiperdum", "system": "trypomastigotes, IVM-t1", "measurement": "IC50", "result": "> 131000 nM"}
{"SMILES": "CC1(C)SC2C(NC(=O)C(NC(=O)C3=C(O)C(Cc4ccccc4)NC3=O)c3ccccc3)C(=O)N2C1C(=O)O (stereo not shown)", "organism": "Escherichia coli", "test": "broth microdilution", "system": "BW25113, Mueller-Hinton broth", "measurement": "MIC", "result": "100 µg/mL"}
{"SMILES": "CC(C)(O/N=C(\\C(=O)N[C@@H]1C(=O)N2C(C(=O)[O-])=C(C[n+]3ccccc3)CS[C@H]12)c1csc(N)n1)C(=O)O", "organism": "Pseudomonas aeruginosa", "test": "checkerboard", "system": "ATCC 27853", "conditions": "together with: magainin II", "measurement": "FIC index", "result": 0.25}
{"SMILES": "Nc1ncnc2c1c(-c1cc(Cl)cc(Cl)c1)cn2[C@@H]1O[C@H](CO)[C@@H](O)[C@H]1O", "organism": "Trichomonas vaginalis", "test": "resorufin", "system": "G3, metronidazole-sensitive", "conditions": "24 h + 2 h, 2% O2", "measurement": "EC50", "result": "1990 ± 560 nM"}
